Assay results gathered from unrelated publications.
Parts stem from different laboratories: compare values within a part only. Changes are numbered by the printed parent chain.

Sample 1
Target: CCNB3, cyclin fold, Cln2 fusion (human)
Technique: yeast growth competition, sequencing
Medium: yeast
Setting: weak parent motif
Relative to: not given
Reading: higher = stronger binding
Quantity: normalised enrichment score
Parent: FOXM1 docking peptide (human); PHLARPIKVESPP; partner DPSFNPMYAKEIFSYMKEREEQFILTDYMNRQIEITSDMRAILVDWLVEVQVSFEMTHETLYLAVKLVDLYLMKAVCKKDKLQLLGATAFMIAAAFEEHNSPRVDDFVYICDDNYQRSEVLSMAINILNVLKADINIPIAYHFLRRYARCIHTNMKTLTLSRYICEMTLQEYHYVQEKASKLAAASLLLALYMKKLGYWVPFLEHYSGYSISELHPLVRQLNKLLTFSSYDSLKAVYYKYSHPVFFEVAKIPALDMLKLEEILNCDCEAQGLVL
PHLARPIKVEAPP [S11A]: 0.0766
PHLARPAKVESPP [I7A]: -0.241
PHAARPIKVESPP [L3A]: -0.133
PHLARPIKVASPP [E10A]: -0.241
PHLARAIKVESPP [P6A]: -0.2
AHLARPIKVESPP [P1A]: -0.247

Sample 2
Target: Sal-like protein 4, full length isoform B (SALL4, Homo sapiens, UniProt Q9UJQ4-2, residues 1-616)
Technique: universal PBM
Molecule type: double-stranded DNA, one strand shown
Medium: in vitro
Tested at: not given
Setting: 8-mer, flanks averaged, mean of replicates
Reading: higher = stronger binding
Quantity: E-score
AGTTTGGC: -0.0833
GGAACATA: 0.181
CAGGGGCG: -0.402
CAAGTCGG: -0.124
AATCCCCC: -0.0828
GATCGGAC: -0.113
CCGGTCAC: -0.295
ATGCTTCG: 0.00943
CGACAGCA: -0.121
CAGTTGGC: -0.109
ACTGACAC: -0.0692
TAAAACGA: 0.0336
CGGGTACG: -0.267
ATAGCATC: 0.192
TGTACACA: 0.313
CAATAGCA: 0.112
GCCGAGAA: -0.0748
ACTACGTA: 0.157
CCAGTCGA: -0.252
CATTACTA: 0.312
CCCGGCGG: -0.419
CGTTTACA: 0.132
CGAACACG: -0.0191
GGTACCAC: -0.143
ATCGTAAC: 0.0893

Sample 3
Target: ABI1, truncated, D143A, DHFR fusion (Arabidopsis thaliana)
Technique: DHFR PCA, deep sequencing
Medium: yeast
Setting: methotrexate growth selection, single substitutions
With: (+)-ABA 4.8 µM
Relative to: wild-type fitted maximum
Reading: higher = stronger binding
Quantity: relative binding score
Parent: PYL1, truncated, DHFR fusion (Arabidopsis thaliana); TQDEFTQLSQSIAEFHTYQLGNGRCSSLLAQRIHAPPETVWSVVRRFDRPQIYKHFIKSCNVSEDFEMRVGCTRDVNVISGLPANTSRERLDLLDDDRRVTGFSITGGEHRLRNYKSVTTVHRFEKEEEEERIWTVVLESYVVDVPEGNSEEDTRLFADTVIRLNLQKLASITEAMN; partner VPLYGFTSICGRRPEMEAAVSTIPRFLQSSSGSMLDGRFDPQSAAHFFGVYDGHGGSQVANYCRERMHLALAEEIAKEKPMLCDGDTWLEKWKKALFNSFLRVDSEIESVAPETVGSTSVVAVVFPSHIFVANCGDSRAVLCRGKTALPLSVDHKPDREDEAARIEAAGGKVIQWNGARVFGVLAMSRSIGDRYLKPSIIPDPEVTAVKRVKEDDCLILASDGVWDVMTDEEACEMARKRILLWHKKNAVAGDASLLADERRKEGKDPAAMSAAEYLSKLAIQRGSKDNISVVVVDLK
R49T: 64.2%
D75T: 92.5%
V78M: 58.5%
E89N: 7.25%
V143Q: -11.8%
S87A: 33.1%
L112G: -9.34%
I33H: 18.9%
R88V: 76.6%
E125M: 75.4%
Q10Y: 45.4%
V78Y: 65.2%
F157H: -10.8%
Q51E: 65.8%
W41P: -4.25%
V118G: -2.11%
T17Q: 47.5%
N165Y: 13%
R69D: 38.3%
V100Y: -16.1%

Sample 4
Target: UBE2G1 UBC core domain (UniProt P62253)
Technique: yeast two-hybrid
Medium: yeast
Setting: mostly zero background
Relative to: not given
Reading: higher = stronger interaction
Quantity: lacZ reporter activity
B1: RNF115 RING domain (UniProt Q9Y4L5); chain TQEQVDMGLECPVCKEDYTVEEEVRQLPCNHFFHSSCIVPWLELHDTCPVCRKSLNGEDSTR
B2: RNF17 RING domain (UniProt Q9BXT8); chain SQPWGAAEIQCTRCGRRVSRSSGHHCELQCGHAFCELCLLMTEECTTIICPDCEVATAVNTRQR
B3: MARCHF2 RING domain (UniProt Q9P0N8); chain RLLSTVIRALDTPSDGPFCRICHEGANGECLLSPCGCTGTLGAVHKSCLEKWLSSSNTSYCELCHTEFAVEKRPRPLTEWL
B4: MDM2 RING domain (UniProt Q00987); chain TQDKEESVESSLPLNAIEPCVICQGRPKNGCIVHGKTGHLMACFTCAKKLKKRNKPCPVCRQPIQMIVLTYFP
B5: RFPL3 RING domain (UniProt O75679); chain MAALFQEASSCPVCSDYLEKPMSLECGCTVCLKCINSLQKEPHGEDLLCCCCSMVSQRNKIRP
B6: TRIM74 RING domain (UniProt Q86UV6); chain SLLELEDWLQCPICLEVFKESLMLQCGHSYCKGCLVSLSYHLDTKVRCPMCWQVVDGSSSLP
B7: ARIH1 RING domain (UniProt Q9Y4X5); chain NTRSSAQDMPCQICYLNYPNSYFTGLECGHKFCMQCWSEYLTTKIMEEGMGQTISCPAHGCDILVDDNTVM
B8: CBLL1 RING domain (UniProt Q75N03); chain GEKDDTPVHFCDKCGLPIKIYGRMIPCKHVFCYDCAILHEKKGDKMCPGCSDPVQRIEQCT
B9: TRIM34 RING domain (UniProt Q9BYJ4); chain ILLNVQEEVTCPICLELLTEPLSLDCGHSLCRACITVSNKEAVTSMGGKSSCPVCGISYSFEHLQA
B10: RMND5B RING domain (UniProt Q96G75); chain MKCWYHSVFACPILRQQTSDSNPPIKLICGHVISRDALNKLINGGKLKCPYCPMEQNPADGK
Target sequence (chain): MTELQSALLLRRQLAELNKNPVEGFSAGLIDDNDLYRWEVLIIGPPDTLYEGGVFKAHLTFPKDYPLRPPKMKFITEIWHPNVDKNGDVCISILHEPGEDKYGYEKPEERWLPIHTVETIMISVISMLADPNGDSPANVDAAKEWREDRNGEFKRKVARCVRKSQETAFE
B1 (RNF115 RING domain): 0
B2 (RNF17 RING domain): 0
B3 (MARCHF2 RING domain): 0
B4 (MDM2 RING domain): 0
B5 (RFPL3 RING domain): 0
FLSKVEETFQCICCQELVFRPITTVCQHNVCKDCLDRSFRAQVFSCPACRYDLGRSYAMQ (UHRF1 RING domain (UniProt Q96T88)): 0
B6 (TRIM74 RING domain): 0
B7 (ARIH1 RING domain): 0
EIKDYKARLTCPCCNMRKKDAVLTKCFHVFCFECVKTRYDTRQRKCPKCNAAFGANDFHR (RNF20 RING domain (UniProt Q5VTR2)): 0
B8 (CBLL1 RING domain): 0
B9 (TRIM34 RING domain): 0
B10 (RMND5B RING domain): 0

Some of these lines once more (sample 3):
Q51E: 65.8%
R69D: 38.3%
V100Y: -16.1%
W41P: -4.25%
N165Y: 13%
V78Y: 65.2%
V118G: -2.11%
